Assay results collected from several papers.
Lines come from different studies, so protocols differ. Numbers after ± are the reported error.
Target: Tyrosine-protein kinase Tec (TEC, Homo sapiens, UniProt P42680)
Sequence (P42680 1-631, as in one of the studies): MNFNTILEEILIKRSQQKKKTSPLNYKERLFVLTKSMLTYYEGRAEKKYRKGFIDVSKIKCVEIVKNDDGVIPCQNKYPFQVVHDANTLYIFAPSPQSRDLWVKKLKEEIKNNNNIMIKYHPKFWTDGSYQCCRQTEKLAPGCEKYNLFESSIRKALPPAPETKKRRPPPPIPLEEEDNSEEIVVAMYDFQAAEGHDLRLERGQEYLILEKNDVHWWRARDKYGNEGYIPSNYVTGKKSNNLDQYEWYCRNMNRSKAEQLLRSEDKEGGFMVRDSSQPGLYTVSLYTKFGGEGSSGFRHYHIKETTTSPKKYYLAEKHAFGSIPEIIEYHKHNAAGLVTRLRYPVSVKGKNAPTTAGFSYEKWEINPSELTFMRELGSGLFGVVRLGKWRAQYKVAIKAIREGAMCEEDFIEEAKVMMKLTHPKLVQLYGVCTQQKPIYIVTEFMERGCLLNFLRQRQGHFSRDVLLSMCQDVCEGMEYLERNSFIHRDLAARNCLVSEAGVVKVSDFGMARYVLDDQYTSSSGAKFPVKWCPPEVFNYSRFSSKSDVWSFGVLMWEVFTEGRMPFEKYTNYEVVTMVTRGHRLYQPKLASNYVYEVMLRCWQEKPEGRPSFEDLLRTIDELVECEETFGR

| Compound | test | test system | conditions | scale | measurement | value |
| --- | --- | --- | --- | --- | --- | --- |
| C=CC(=O)N1CCC(COCC(=O)N2CCN(c3nc(-c4cnc(N)nc4C(F)F)nc(N4CCOC[C@@H]4C)n3)CC2)CC1 | KINOMEscan | – | 1 µM | – | remaining binding | 94% |
| COc1ccc(F)cc1C(=O)NCc1ccc(-c2nn([C@@H](C)C(F)(F)F)c(N)c2C(N)=O)cc1 | kinase activity, inhibitor, HotSpot radiometric | – | 1000 nM, added: ATP at Km | – | remaining activity | 64.6 ± 1% |
| Cc1cc(Nc2cc(N3CCN(C)CC3)nc(Sc3ccc(NC(=O)C4CC4)cc3)n2)[nH]n1 | – | – | 0.03 µM | reference: control | remaining activity | 105% |
| CC(C)[C@H](NC(=O)c1cc(-c2cnn3cc(-c4ccc(OCCN5CCCCC5)cc4)cnc23)cs1)C(F)(F)F | radiometric kinase | – | 15 nM | reference: TEC over ULK1 | relative inhibition | 0 |
| [2H]c1cc(C)c(NC(=O)c2cnc(Nc3cc(N4CCC(O)CC4)nc(C)n3)s2)c(Cl)c1 | – | – | 0.001 µM | – | inhibition | > 50% |
| C#Cc1cc(-c2cc(Nc3nc(N[C@@H](C)c4ccc(F)cn4)ncc3Cl)n[nH]2)ccc1C=O | enzyme activity, inhibitor | – | 0.2 µM | – | inhibition | 12.1% |
| O=C(NC1CCC1)c1ccc2nc(-c3cccc(NS(=O)(=O)NCCN4CCCCC4)c3)cn2c1 | enzyme activity | – | 10 µM | – | remaining activity | 100% |
| C=CC(=O)N1CCC[C@@H](n2nc(-c3ccc(Oc4ccccc4)cc3)c3c(N)ncnc32)C1 | – | – | 10 µM | – | remaining activity | 97.9% |
| C=CC(=O)Nc1cccc(Nc2nc(Nc3ccc(OCCOC)cc3)ncc2F)c1 | covalent inhibitor, COOKIE-Pro | permeabilized Ramos | 25 nM, 2 min | – | target occupancy | ~80% |
| C#Cc1cccc(Oc2ccc(-c3nn([C@@H]4CCCN(C(=O)C=C)C4)c4ncnc(N)c34)cc2)c1 | ABPP-SILAC | – | 1 µM, 1 h | reference: DMSO | SILAC ratio | 20 |
| COc1cc(-c2cncc3c2CN(C)Cc2cc(N4CCNCC4)ccc2-3)cc(OC)c1OC | kinase activity | – | 1 µM, added: ATP 10 µM | reference: DMSO control | remaining activity | 107% |
| Cc1nc(Nc2ncc(C(=O)Nc3c(C)cccc3Cl)s2)cc(N2CC[C@H](O)C2)n1 | – | – | 0.001 µM | – | inhibition | 82% |
